Published values from different studies.
Parts stem from different laboratories: compare values within a part only.

Set 1
Target: RING finger protein unkempt homolog, zinc fingers 1-6, SBP tag (UNK, Homo sapiens, UniProt Q9C0B0, residues 30-357)
Chain of UniProt Q9C0B0 (30-357, looked up): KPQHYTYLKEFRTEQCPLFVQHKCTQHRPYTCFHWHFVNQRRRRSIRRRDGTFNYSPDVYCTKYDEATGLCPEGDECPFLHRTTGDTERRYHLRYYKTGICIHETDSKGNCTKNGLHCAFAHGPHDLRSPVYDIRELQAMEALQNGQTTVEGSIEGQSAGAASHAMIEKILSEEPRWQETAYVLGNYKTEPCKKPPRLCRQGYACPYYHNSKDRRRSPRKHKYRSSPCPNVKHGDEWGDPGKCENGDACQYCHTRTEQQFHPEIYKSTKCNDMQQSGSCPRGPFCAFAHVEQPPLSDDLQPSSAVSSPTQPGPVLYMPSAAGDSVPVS
Technique: RNA Bind-n-Seq
Form: RNA
Matrix: in vitro
Concentration: 100 nM
Setting: RNA with constant flanks, vertebrate orthologous sites, ends assumed
Relative to: input RNA pool
Direction: higher = stronger binding
The bound/input enrichment of `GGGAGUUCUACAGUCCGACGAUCUGGAGCAACUCAAGGAUUGAGGACUGGUUUUACAAAUAUACCAAGUAGAUAUGGAACUAAUAGAAUUGGACAACCAAGACCAUGAUGGACUCUAACUUAUUUUUAUGAGAAAUAUUGACUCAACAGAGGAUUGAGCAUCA` is reported as 0.395 ratio.
With `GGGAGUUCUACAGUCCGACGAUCUCUAGGCUUCCACAUAGGGUCAGCCUCAAGACAUAGGAUUUAUGAUAAAUGUAUCCAGCUAAGUUAAACUUAAUAUUUGUAUUAGCCUAUAAAUAAAAAGGGCAUCUUUUGUAUUAAAAUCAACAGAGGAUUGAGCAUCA` the bound/input enrichment was 0.548 ratio.
`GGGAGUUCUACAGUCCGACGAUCGUUAGGUCAUGACCCUUAUAGGUUAGGUCAUGAUGCCUACAGGUUAGGGCAAGACCCUUAUAGAUUAGGCCAUGAUCCCUACAGACUAACUCCUGAUCCCUAUAGGAUGUCACCUAGACCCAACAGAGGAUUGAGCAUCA` has a bound/input enrichment of 0.429 ratio.
`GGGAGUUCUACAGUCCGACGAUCGGGGCGGCCGGUGGGGGAAUCCCAUGCCCUGGCCGGCCACCCCUCCCUGCUAACCGCUCCUAGUUUUUUUUUUUUUUUAAACCACCAUGUGAUUAAGGUCGGCGCUGCCUCCCCCGACCCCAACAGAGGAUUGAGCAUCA` gave a bound/input enrichment of 2.13 ratio.
`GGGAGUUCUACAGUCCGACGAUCAAAAAACCCCGAUUUUAGAUAUCUAGGCUUUCAUUCCAGUUGUUUUUGUCUUUUCUUGUUUAGAUACCACUUUUAAAUUCUUGCAUUUUAGUAAGAAAGCUACCUUUUUAUGGAUGUUAGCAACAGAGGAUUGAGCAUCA` has a bound/input enrichment of 1.3 ratio.
`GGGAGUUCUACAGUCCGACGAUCGUUAGGUCAUGACCCUUACAGAUUAGGUCAUGAUGCCUACAGAUUAGGGCAAGAUCCCUAUAGAUUAGGCCAUGAUCCCUACAGACUAACUCCUGAUCCCUAUAGGAUGUCACCUAGACCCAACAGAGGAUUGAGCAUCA` gave a bound/input enrichment of 0.286 ratio.
`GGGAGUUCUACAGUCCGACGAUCAAAUUAUAGCAAAAGAGCCAAGCAGUAGUAUUGUGGGGGUUUUUGUAAAUGUAAAAUACUUAGGUUCAGACUUUGUUUCCUUCAAUUUUAAAAAUAAAAGAUACCUCAGUGCUAUAAUGUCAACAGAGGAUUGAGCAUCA` gave a bound/input enrichment of 0.341 ratio.
For `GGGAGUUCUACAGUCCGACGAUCAGCAACUCAAGGAUUCAGAACUGGUUUUACAAAUGUCCCAAGCAGAUUUGGAACCAACGCUCGUGGUCAACCCCGACCGUAAUAAACACCGUUAUUUAUUAUACUUAAGGGUAUUGACUUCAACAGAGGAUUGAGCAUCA`, the bound/input enrichment was 0.301 ratio.

Set 2
Target: Replicase polyprotein 1ab, polymerase (rep, Severe acute respiratory syndrome coronavirus 2, UniProt P0DTD1)
Effect on: enzyme activity
Mode: inhibitor
Concentration: 20 µM
`C[C@H](N)[C@H](O)c1cccc(O)c1` has an inhibition of 0.48%.
The inhibition of `[N-]=[N+]=N[C@]1(CO)O[C@@H](n2ccc(N)nc2=O)[C@@H](O)[C@@H]1O` is reported as -6.26%.
For `N[C@H](Cc1ccccc1)C(=O)O`, the inhibition was -3.38%.
`Cc1cccc(/C=N/Nc2cc(N3CCOCC3)n3nc(-c4ccncc4)cc3n2)c1` has an inhibition of -4.8%.
With `CCn1nc(C)c2c1C(c1ccccc1)=NCC(=O)N2` the inhibition was 0.25%.
For `CC1=C(C(=O)OC(C)C)C(c2cccc([N+](=O)[O-])c2)C(C(=O)OC2CN(C(c3ccccc3)c3ccccc3)C2)=C(N)N1` (stereo not drawn), the inhibition was -6.08%.
With `Cc1cccc(Nc2ccncc2S(=O)(=O)NC(=O)NC(C)C)c1` the inhibition was -14.2%.
With `COc1ccc(-c2cc(=O)c3c(OC)c(OC)c(OC)c(OC)c3o2)cc1` the inhibition was -1.92%.
`Cc1ncc(-c2csc(N=C(N)N)n2)[nH]1` gave an inhibition of 3.29%.
For `COc1cc(COc2cc(N)c(Cl)cc2C(=O)CCC2CCN(CCNS(C)(=O)=O)CC2)cc(OC)c1`, the inhibition was 3.09%.
The inhibition of `Cc1ccccc1C(C(=O)NC1CCCCC1)N(C(=O)Cn1ccnc1C)c1cccc(F)c1` (stereo not drawn) is reported as -3.25%.
The inhibition of `COCCOc1ccc2c(c1)ncn2-c1ccc2cccc(N3CCC(N)CC3)c2n1` is reported as 7.43%.
With `CC(C)[C@H](N)C(=O)OCCOCn1cnc2c(=O)nc(N)[nH]c21` the inhibition was -1.97%.
With `O=S1(=O)c2cccc3cccc(c23)N1CCCN1CCN(c2ccc(F)cc2)CC1` the inhibition was -1.95%.
The inhibition of `Nc1nc(/C(=C/CC(=O)O)C(=O)N[C@@H]2C(=O)N3C(C(=O)O)=CCS[C@H]23)cs1` is reported as -9.96%.
With `CC(C)(N)C(=O)N[C@H](COCc1ccccc1)C(=O)N1CCC2(CC1)CN(S(C)(=O)=O)c1ccccc12` the inhibition was -0.59%.
With `C[C@H]1CC[C@@]2(OC1)O[C@H]1C[C@H]3[C@@H]4CC[C@@H]5C[C@@H](O)CC[C@]5(C)[C@H]4CC[C@]3(C)[C@H]1[C@@H]2C` the inhibition was -0.19%.
`COc1ccc(-c2coc3cc(O)cc(O)c3c2=O)cc1` gave an inhibition of -4.07%.

Set 3
Cell line: HEK-293T/ACE2
Effect on: pseudovirus infection
Organism: VSV pseudotyped with SARS-CoV-2 spike
Concentration: concentration not given
Relative to: vehicle-treated
For `CO[C@H]1C[C@@H]2CC[C@@H](C)[C@@](O)(O2)C(=O)C(=O)N2CCCC[C@H]2C(=O)O[C@H]([C@H](C)C[C@@H]2CC[C@@H](OC(=O)C(C)(CO)CO)[C@H](OC)C2)CC(=O)[C@H](C)/C=C(\C)[C@@H](O)[C@@H](OC)C(=O)[C@H](C)C[C@H](C)/C=C/C=C/C=C/1C`, the GFP-positive cells was 89.3%.
`CC(C)C[C@H](NC(=O)CNC(=O)c1cc(Cl)ccc1Cl)B(O)O` gave a GFP-positive cells of 22%.
The GFP-positive cells of `CCC[C@H](NC(=O)[C@@H]1[C@H]2CCC[C@H]2CN1C(=O)[C@@H](NC(=O)[C@@H](NC(=O)c1cnccn1)C1CCCCC1)C(C)(C)C)C(=O)C(=O)NC1CC1` is reported as 103%.
`Cc1nc2c([nH]1)-c1ccccc1N(C(=O)c1ccc(NC(=O)c3ccccc3-c3ccccc3)cc1)CC2.Cl` has a GFP-positive cells of 65.9%.

Set 4
Target: Replicase polyprotein 1ab, main protease (rep, Severe acute respiratory syndrome coronavirus 2, UniProt P0DTD1)
Effect on: enzyme activity
Mode: inhibitor
Concentration: 20 µM
Setting: hit confirmation
`Oc1cc(O)c2cc(O)c(-c3cc(O)c(O)c(O)c3)[o+]c2c1` has an inhibition of 27.5%.
`C[n+]1c2cc(N)ccc2cc2ccc(N)cc21` gave an inhibition of 82.1%.
`CCN(CC)S(=O)(=O)c1cccc(-n2sc3ccccc3c2=O)c1` gave an inhibition of 109%.
For `O=C1/C(=C/c2ccccc2)C(NC2CCCCC2)c2ccccc21` (stereo not drawn), the inhibition was 22.9%.

Set 5
Target: Fragile X messenger ribonucleoprotein 1, C-terminal low-complexity region (Fmr1, Mus musculus, UniProt P35922)
Technique: RNA Bind-n-Seq
Form: RNA
Matrix: in vitro
Concentration: 200 nM
Setting: whole 134-nt RNA, ends assumed
Added: 150 mM KCl
Relative to: input library
Direction: higher = stronger binding
The log2 enrichment of `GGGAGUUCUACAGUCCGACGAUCUGGGAGGUGGAUUUUGUUUAUUUUUUUACCUCAUUUCCAGGGGUGGGAAUUUUUUUUUAAUAUGUGUCAUGAAUAAAGUUGUUUUUGAAAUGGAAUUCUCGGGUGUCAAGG` is reported as -0.0976.
The log2 enrichment of `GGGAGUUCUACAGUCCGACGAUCUAACUUUAGAGGAGGAUCUGAUGGUUAUGGCAGUGGACGUGGAUUUGGGGAUGGCUAUAAUGGGUAUGGAGGAGGACCUGGAGGUGGCAAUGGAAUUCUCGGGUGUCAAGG` is reported as 0.329.
The log2 enrichment of `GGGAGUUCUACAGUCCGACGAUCCCUCAAGUCCUGUGCUACACAUCGUAUGUACCGAAUCGGGGAGGGGAGGAGGGAAAGUAUUAUGUUACGCCGUUCGGAUCUGCACUUCCAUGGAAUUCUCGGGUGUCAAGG` is reported as 1.04.
`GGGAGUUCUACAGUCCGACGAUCCUUCUUGCAUGCUCGGCUCCGGACAGCUACGCUUCGGCAUGACGCAGACGGGCAGGCCACCCUGUUGAACCUCCUGCUGCGGAAUUACCUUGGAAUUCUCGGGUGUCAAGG` gave a log2 enrichment of -0.394.
`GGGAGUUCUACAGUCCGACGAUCAGUCCUGUGCUACACAUCGUAUGUACCGAAUCGGCCCCCGGGCCCCCGGCCCCCGGGAAAGUAUUAUGUUACGCCGUUCGGAUCUGCACUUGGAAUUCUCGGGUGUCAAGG` has a log2 enrichment of -0.55.
The log2 enrichment of `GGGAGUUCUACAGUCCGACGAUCUCAAGUCCUGUGCUACACAUCGUAUGUACCGAAUCGGGUUGGGGUUGGGGUUGGGAAAGUAUUAUGUUACGCCGUUCGGAUCUGCACUUCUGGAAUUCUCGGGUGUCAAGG` is reported as 1.3.
For `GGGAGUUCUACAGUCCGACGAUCCACAGACAACACGCACCCACACAGACACAGAGGCAAGGGGUUGGGAUGGGGACAGGGUGCACAGCAGGGCGGGGUAGGACCCCAGCCCCUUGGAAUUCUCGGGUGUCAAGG`, the log2 enrichment was 1.31.
`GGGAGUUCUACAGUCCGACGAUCAGUCCUGUGCUACACAUCGUAUGUACCGAAUCAAAUUUAAAUUUAAAUUUUUUUAAAAAAGUAUUAUGUUACGCCGUUCGGAUCUGCACUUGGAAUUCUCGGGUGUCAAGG` gave a log2 enrichment of -1.31.
